Measurements collected from several papers.
Lines come from different studies, so protocols differ. Several values in a cell are separate wells, animals, samples, runs or records. ± gives the spread as reported.

CCCC[C@H](OC(C)=O)c1ccccc1C(=O)O — Cavg (beagle dogs, both sexes, whole blood; intravenous, 1.5 mg/kg, 7 days): 57 ± 17 ng/mL
O=C(Nc1cnccc1-c1ccc([18F])nc1)c1ccnc(NC(=O)C2CC2)c1 — SUV (FVB/NJ mice (both sexes), stomach; intravenous, dose not given, 120 min): 0.593
CNc1cc(C)c(C(N)=O)cn1 — plasma concentration (Han Wistar rats, male, plasma; oral, 30 mg/kg, 1.00 h): 97000 nM
CCN(CC)CC#CCNc1ccnc2cc(Cl)ccc12 — mean revertants (Salmonella typhimurium; mini-Ames test; TA102; 125.0 µg/well, with rat liver S9): 91 revertants/well
C/C(N)=N/C(=N\S(=O)(=O)c1ccc(C(F)(F)F)cc1)N1C[C@H](c2ccccc2)C(c2ccc(Cl)cc2)=N1 — Tmax (Beagle dog, plasma; oral, 36 mg/kg): 2 h
N#Cc1cc(NC(=O)C2c3ccccc3C(=O)N(CC(F)(F)F)C2c2ccc[n+]([O-])c2)ccc1F (stereo not shown) — terminal half-life (human; median, interim, dose-independent): ~19 h
CCCCN1C(=O)c2cccc3c(NCCCCCCN4CCOCC4)ccc(c23)C1=O — Stokes shift (chloroform): 83 nm
Cc1c(-c2ccc(N3CCc4cccc(C(=O)Nc5nc6ccccc6s5)c4C3)nc2C(=O)O)cnn1CC12CC3CC(CC(C3)C1)C2 — platelet count (anaesthetised rat; intravenous infusion, 100 mg/kg, 85 min; baseline: baseline): 5.4%
COc1cccc(OC)c1-c1cc(C(=O)NC2(C(=O)O)C3CC4CC(C3)CC2C4)nn1-c1ccc(C(=O)N(C)CCCN(C)C(=O)[C@H](CCCCNC(=O)[C@H](CC(C)C)NC(=O)C2OC2C(=O)O)NC(=O)CN2CCN(CC(=O)[O-])CCN(CC(=O)[O-])CCN(CC(=O)[O-])CC2)cc1C(C)C.[177Lu+3] (mixture of isomers) — tumour-to-stomach ratio (mouse HT-29 xenograft; 24 h, biodistribution; baseline: tumour over stomach): 27.5
CCc1cnc(NC(=O)c2cc(S(=O)(=O)N3CCOCC3)ccc2N(C)C2CCCC2)s1 — serum AST (mouse; 10 mg/kg, 3 doses): 112 IU/L
O=C(Nc1cnccc1-c1ccc([18F])cc1)c1ccnc(NC(=O)C2CC2)c1 — SUV (FVB/NJ mice (both sexes), spleen; intravenous, dose not given, 120 min): 0.15
C=C(NC(=O)c1csc(-c2nc3c(cc2O)-c2nc(cs2)C(=O)NC(C(C)O)C(=O)NC(=C(C)OC)c2nc(cs2)C(=O)NC2c4nc(cs4)C(=O)NC(COC(=O)c4c5c6c(cccc6n4O)COC(=O)C(OC4CC(C)(O)C(N(C)C)C(C)O4)C2OC5)c2nc-3cs2)n1)C(N)=O (stereo not shown) — Tmax (female cynomolgus monkey, plasma; intravenous, 9 mg/kg, single dose, infusion): 0.11 h
C[n+]1cc(/C=N/NC(=O)N/N=C/c2cc3ccccc3[n+](C)c2)cc2ccccc21 — ΔTm (hp2 hairpin duplex DNA; FRET melting; 1 µM): 1.6 ± 0.3 °C
COC(=O)[C@@]1(C(C)C)C=C(C(=O)Nc2cccc(C(=O)Nc3ccc(Nc4nccc(-c5cccnc5)n4)c(C)c3)c2)C(=O)CC1 — compound remaining (rat, blood plasma; 1 µM, 120 min): 74.1%
N#C[C@@H]1CC(F)(F)CN1C(=O)CNC(=O)c1ccnc2c(NC(=O)CCOCCOCCOCCOCCOCCOCCNC(=O)[C@H](CCCCNC(=O)CN3CCN(CC(=O)[O-])CCN(CC(=O)[O-])CCN(CC(=O)[O-])CC3)NC(=O)CCCc3ccc(I)cc3)cccc12.[177Lu+3] — radiochemical stability (PBS; 1 h, 37 °C, 177Lu-labelled): 99.45 ± 0.2%
O=C([O-])CN1CCN(CC(=O)[O-])CCN(C(CO)C(O)CO)CCN(CC(=O)[O-])CC1.[Dy+3] (stereo not shown) — lanthanide concentration (cynomolgus monkey, kidney cortex; dose not given, day 58): 0.16 ± 0.09 nmol/g
CCCCN1C(=O)c2cccc3c(NCCN4CCOCC4)ccc(c23)C1=O — Stokes shift (toluene): 77 nm
CCCC[C@H](NC(=O)CNC(=O)CNC(=O)[C@H](CCCCNC(=O)[C@H](CC(=O)O)NC(=O)C(C)c1ccc(CC(C)C)cc1)NC(=O)CN1CCN(CC(=O)O)CCN(CC(=O)O)CCN(CC(=O)O)CC1)C(=O)N[C@H]1CC(=O)NCCCC[C@@H](C(N)=O)NC(=O)[C@H](Cc2c[nH]c3ccccc23)NC(=O)[C@H](CCCNC(=N)N)NC(=O)[C@@H](Cc2ccccc2)NC(=O)[C@H](Cc2c[nH]cn2)NC1=O (stereo partly shown) [lutetium-177 labelled] — tumour-to-tissue ratio (C57 mice, tumour; intravenous, 0.037 MBq, 0.5 h; baseline: liver): 3.9
CN1C(=O)[C@@H](Cc2ccc(O)c(I)c2)NC(=O)CNC(=O)[C@H](Cc2ccc3ccccc3c2)NC(=O)[C@H](CCCNC(=N)N)NC(=O)[C@H]1CCCNC(=O)c1ccc(CNC(=O)CN2CCN(CC(=O)O)CCN(CC(=O)O)CCN(CC(=O)O)CC2)cc1 [lutetium-177 labelled] — total absorbed dose (1; human, extrapolated from mouse, breasts): 0.0018 mGy/MBq
CC(C)(O)c1ncc([S@](N)(=O)=NC(=O)Nc2c3c(cc4c2CCC4)CCC3)s1 — subjects with adverse events (measured: Vascular disorders; healthy human volunteers; oral, 100 mg once daily, 14 days, spray-dried dispersion): 17%
Cc1ccc(OCC(=O)N(Cc2cccs2)c2ccn[nH]2)cc1 — remaining compound (rat plasma; 750 ng/mL, 6 h, 37 °C, unit not given; baseline: time zero): 0.3
N#C[C@@H]1CC(F)(F)CN1C(=O)CNC(=O)c1ccnc2c(NC(=O)C(N)CCCCNC(=O)CCOCCOCCOCCOCCOCCOCCNC(=O)CN3CCN(CC(=O)[O-])CCN(CC(=O)[O-])CCN(CC(=O)[O-])CC3)cccc12.[68Ga+3] (stereo partly shown) — radiochemical stability (human serum; 30 min, 37 °C, 68Ga-labelled): 99.41 ± 0.5%
O=C1C2CC3CC1CC(C(=O)N1CCN(c4ccc([N+](=O)[O-])c5ncccc45)CC1)(C3)C2 — clearance (ICR mice male, plasma; intravenous, 1 mg/kg): 118 mL/min/kg
CNC(=O)C1CCCN(C(=O)C2CC3CCC2N3C(=O)[C@@H]2C[C@@H](O)CN2C(=O)NCc2cccc(Cl)c2F)C1 (mixture of isomers) — 6β-hydroxytestosterone formation (CYP3A4 (human); inhibitor, time-dependent inhibition; 5.56 µM, preincubated without NADPH, added: testosterone substrate): 174 ng/mL
CC#CC(=O)N1CCC[C@H]1c1nc(-c2ccc(C(=O)Nc3ccccn3)cc2)c2c(N)nccn12 — trough concentration (mouse, TMD8 tumour-bearing, plasma; 30 mg/kg twice daily, 12 h): 0.118 ng/mL
Cc1cc(-c2ccc(C(=O)[C@@H]3CCCC[C@H]3C(=O)Nc3cnn4c3C(=O)NCC4)cc2)[nH]n1 — cumulative recovery of radioactivity (human, urine and faeces; oral, 200 mg; baseline: dose): 83.1% and 82.6% and 90.4% and 80% and 86.3% and 88.8%
OCC1OC(n2cnc3c(NCc4ccc(Br)s4)ncnc32)C(O)C1O (stereo not shown) — fraction unbound (equilibrium dialysis; mouse plasma; 0.5 µg/mL, 4 h, pH 7.4): 0.064
C[n+]1cc(/C=N/NC(=O)c2ccc3ccc4ccc(C(=O)N/N=C/c5cc6ccccc6[n+](C)c5)nc4c3n2)cc2ccccc21 — ΔTm (MYC parallel G4 DNA; FRET melting; 1 µM, DNA 0.2 µM, added: duplex DNA competitor 10 µM): 5.8 ± 1.4 °C
Cc1cc(C(=O)NC(C)(C)CO)cc(C)n1 — plasma peak area (LC-MS metabolite profiling; Sprague-Dawley rat, both sexes, plasma; oral, 100 mg/kg of parent drug, 4 (unit not given); higher = more metabolite): 130000 a.u.
CC(C)OCCOCc1ccc(OCC(O)CN(N=O)C(C)C)cc1 (stereo not shown) — revertant fold increase (Escherichia coli; enhanced Ames test; WP2 uvrA; 5000 µg/plate, 30% hamster S9; baseline: solvent control): 1.1 fold
CC(C)[C@H](NC(=O)[C@H](Cc1c[nH]c2ccccc12)NC(=O)[C@H](CCCNC(=N)N)NC(=O)[C@H](CCCNC(=N)N)NC(=O)[C@@H](NC(=O)[C@@H](NC(=O)[C@H](CCCNC(=N)N)NC(=O)[C@@H](NC(=O)[C@@H](NC(=O)[C@H](CCCNC(=N)N)NC(=O)[C@H](CCCNC(=N)N)NC(=O)[C@@H](NC(=O)[C@H](Cc1c[nH]c2ccccc12)NC(=O)[C@H](CCCNC(=N)N)NC(=O)[C@H](CCCNC(=N)N)NC(=O)[C@@H](NC(=O)[C@H](CCCNC(=N)N)NC(=O)[C@H](CCCNC(=N)N)NC(=O)[C@@H](NC(=O)[C@H](Cc1c[nH]c2ccccc12)NC(=O)[C@H](CCCNC(=N)N)NC(=O)[C@@H](N)CCCNC(=N)N)C(C)C)C(C)C)C(C)C)C(C)C)C(C)C)C(C)C)C(C)C)C(=O)N[C@@H](CCCNC(=N)N)C(=O)N[C@@H](CCCNC(=N)N)C(=O)O — sodium (CD1 mouse, plasma; intravenous, 15 mg/kg, 24 h, [14C]-labelled compound): 162 mEq/L
CN(Cc1cc(C2CC2)on1)C(=O)c1cccc(-c2ccc(F)cc2)c1 — remaining compound (male ICR/CD-1 mouse, liver microsomes; 2 µM, 60 min, pH 7.5, added: 1-aminobenzotriazole 500 µM, preincubated 30 min): 73.8%
CNc1cc(N)c(C(N)=O)c[n+]1C — plasma concentration of product (substrate, measured: methylated product; rats, plasma; oral, 30 mg/kg, 24.0 h): 13.8 nM and 11.2 nM
N#C[C@@H]1CC(F)(F)CN1C(=O)CNC(=O)c1ccnc2c(NC(=O)C(CCCCNC(=O)CCOCCOCCOCCOCCOCCOCCNC(=O)CN3CCN(CC(=O)[O-])CCN(CC(=O)[O-])CCN(CC(=O)[O-])CC3)NC(=O)CCCc3ccc(I)cc3)cccc12.[68Ga+3] (stereo partly shown) — radiochemical stability (human serum; 120 min, 37 °C, 68Ga-labelled): 97.54 ± 0.6%
CCCCN1C(=O)c2cccc3c(NCCCCN4CCOCC4)ccc(c23)C1=O — Stokes shift (methanol): 90 nm
O=C1c2sc(-c3ccc(N4CCC(CO)CC4)nc3F)nc2CCN1c1cccnc1 — concentration (CD1 mouse, plasma; i.v., dose not given, 0.033 h): 1860 ng/mL and 1290 ng/mL and 1460 ng/mL
CCCCN1C(=O)c2cccc3c(NCCCN4CCOCC4)ccc(c23)C1=O — fluorescence quantum yield (1,4-dioxane): 0.29
CN(O)C(=O)CCC(=O)NCCCN(CCCCN(CCCNC(=O)CCC(=O)N(C)O)C(=O)CCC(=O)N(C)O)C(=O)CCC(=O)N(C)O.[89Zr] — intact complex (radio-TLC; aqueous buffer; 3 d, pH 7.2, 37 °C, 89Zr-labelled complex, added: MgCl2 10-fold excess): 98.1 ± 1.8%
COc1cccc(OC)c1-c1cc(C(=O)NC2(C(=O)O)C3CC4CC(C3)CC2C4)nn1-c1ccc(C(=O)NCCNC(=O)[C@H](CCCCNC(=O)[C@H](CC(C)C)NC(=O)C2OC2C(=O)O)NC(=O)CN2CCN(CC(=O)[O-])CCN(CC(=O)[O-])CCN(CC(=O)[O-])CC2)cc1C(C)C.[177Lu+3] (mixture of isomers) — tissue uptake (mouse, HT-29 xenograft, HT-29 tumour; 4 h post injection): 11.6 %ID/g
CCCCN1C(=O)c2cccc3c(NCCCCCCCCN4CCOCC4)ccc(c23)C1=O — Stokes shift (methanol): 98 nm

Excerpt of the above:
C=C(NC(=O)c1csc(-c2nc3c(cc2O)-c2nc(cs2)C(=O)NC(C(C)O)C(=O)NC(=C(C)OC)c2nc(cs2)C(=O)NC2c4nc(cs4)C(=O)NC(COC(=O)c4c5c6c(cccc6n4O)COC(=O)C(OC4CC(C)(O)C(N(C)C)C(C)O4)C2OC5)c2nc-3cs2)n1)C(N)=O (stereo not shown) — Tmax (female cynomolgus monkey, plasma; intravenous, 9 mg/kg, single dose, infusion): 0.11 h
C[n+]1cc(/C=N/NC(=O)N/N=C/c2cc3ccccc3[n+](C)c2)cc2ccccc21 — ΔTm (hp2 hairpin duplex DNA; FRET melting; 1 µM): 1.6 ± 0.3 °C
COC(=O)[C@@]1(C(C)C)C=C(C(=O)Nc2cccc(C(=O)Nc3ccc(Nc4nccc(-c5cccnc5)n4)c(C)c3)c2)C(=O)CC1 — compound remaining (rat, blood plasma; 1 µM, 120 min): 74.1%
